Assay results from different studies.
Protocols differ between the studies behind these lines. Several values in a cell are separate wells, animals, samples, runs or records. ± marks the error that the study gave.

Under “PCE to total erythrocyte ratio”, `Cc1ccc(OCC(=O)N(Cc2cccs2)c2ccn[nH]2)cc1` is recorded as 0.66 ± 0.12 (micronucleus; CD-1 mouse Crl:CD-1(ICR), female, bone marrow; oral, 2000 mg/kg/day, 3 days).
With `C/C(=N\OCCCN1CCCCC1)c1ccc(C(F)(F)F)cc1` the brain concentration was 8580 ± 1630 ng/g (C57BL/6 mouse, brain; oral, 10 mg/kg, 0.5 h).
`O=C1NC2(CC2)COc2ncc(F)cc2[C@H]2COCCN2c2ccn3ncc1c3n2`: “creatine kinase activity” 427 ± 193 U/L (Sprague-Dawley rat, male, serum; oral, 5 mg/kg/day, 4 weeks daily, end of treatment).
Under plasma concentration, `CC(C)(CCCC/C=C/CCCCCC(C)(C)C(=O)O)C(=O)O` is recorded as “not detected” (ICR mice, plasma; oral, dose not given, 48 h).
With `N#[11C]c1ccc(-c2csc(NN=C3CCCC3)n2)cc1` the radioactivity uptake was 9.34 ± 1.17 %ID/g (C57BL/6 mice, male, bladder; intravenous, 3 MBq, 5 min).
`CC(C)C[C@H](NC(=O)[C@H](Cc1ccc(O)cc1)NC(=O)[C@H](Cc1c[nH]cn1)NC(=O)[C@H](CC(=O)O)NC(=O)[C@@H](NC(=O)[C@H](C)NC(=O)[C@H](CC(C)C)NC(=O)CNC(=O)CNC(=O)[C@@H](NC(=O)[C@@H](NC(=O)[C@H](CCCCN)NC(=O)CNC(=O)[C@@H](NC(=O)[C@H](CCCCN)NC(=O)[C@H](CCCCN)NC(=O)[C@H](C)NC(=O)[C@H](CCCNC(=N)N)NC(=O)[C@H](CC(N)=O)NC(=O)[C@H](Cc1ccccc1)NC(=O)[C@H](Cc1c[nH]c2ccccc12)NC(=O)[C@H](CCCCN)NC(=O)[C@H](CCCCN)NC(=O)[C@H](Cc1c[nH]c2ccccc12)NC(=O)CN)C(C)C)[C@@H](C)O)C(C)C)C(C)C)C(N)=O`: “acute toxic concentration” 25 µM (zebrafish embryos 28 hpf, E3 medium; 1 h).
`NC1CCN(C(=O)Oc2ccc(C3CCCC4(C3)OOC3(O4)C4CC5CC(C4)CC3C5)cc2)CC1` (racemic) gave an MRT of ~10 h (male Sprague-Dawley rats, plasma; intravenous, 10 mg/kg).
With `CSCC[C@H](N)C(=O)N[C@@H](C)C(=O)N[C@@H](Cc1c[nH]c2ccccc12)C(=O)N[C@@H](Cc1c[nH]cn1)C(=O)N[C@@H](CC(=O)O)C(=O)N[C@@H](CC(=O)O)C(=O)N[C@@H](CCC(=O)O)C(=O)N[C@@H](CCC(=O)O)C(=O)N[C@@H](Cc1ccccc1)C(=O)N[C@@H](C)C(=O)N[C@@H](CCCNC(=N)N)C(=O)N[C@@H](CCCNC(=N)N)C(=O)N[C@@H](CCCNC(=N)N)C(=O)N[C@@H](CCCNC(=N)N)C(=O)NCCCCCC(=O)NCCCCC(NC(=O)CCCCCNC(=O)[C@H](CCCNC(=N)N)NC(=O)[C@H](CCCNC(=N)N)NC(=O)[C@H](CCCNC(=N)N)NC(=O)[C@H](CCCNC(=N)N)NC(=O)[C@H](C)NC(=O)[C@H](Cc1ccccc1)NC(=O)[C@H](CCC(=O)O)NC(=O)[C@H](CCC(=O)O)NC(=O)[C@H](CC(=O)O)NC(=O)[C@H](CC(=O)O)NC(=O)[C@H](Cc1c[nH]cn1)NC(=O)[C@H](Cc1c[nH]c2ccccc12)NC(=O)[C@H](C)NC(=O)[C@@H](N)CCSC)C(=O)NCCCCC(NC(=O)C(CCCCNC(=O)CCCCCNC(=O)[C@H](CCCNC(=N)N)NC(=O)[C@H](CCCNC(=N)N)NC(=O)[C@H](CCCNC(=N)N)NC(=O)[C@H](CCCNC(=N)N)NC(=O)[C@H](C)NC(=O)[C@H](Cc1ccccc1)NC(=O)[C@H](CCC(=O)O)NC(=O)[C@H](CCC(=O)O)NC(=O)[C@H](CC(=O)O)NC(=O)[C@H](CC(=O)O)NC(=O)[C@H](Cc1c[nH]cn1)NC(=O)[C@H](Cc1c[nH]c2ccccc12)NC(=O)[C@H](C)NC(=O)[C@@H](N)CCSC)NC(=O)CCCCCNC(=O)[C@H](CCCNC(=N)N)NC(=O)[C@H](CCCNC(=N)N)NC(=O)[C@H](CCCNC(=N)N)NC(=O)[C@H](CCCNC(=N)N)NC(=O)[C@H](C)NC(=O)[C@H](Cc1ccccc1)NC(=O)[C@H](CCC(=O)O)NC(=O)[C@H](CCC(=O)O)NC(=O)[C@H](CC(=O)O)NC(=O)[C@H](CC(=O)O)NC(=O)[C@H](Cc1c[nH]cn1)NC(=O)[C@H](Cc1c[nH]c2ccccc12)NC(=O)[C@H](C)NC(=O)[C@@H](N)CCSC)C(N)=O` (stereo partly shown) the tissue distribution was 0.81% and 0.98% and 0.8% (C57BL/6 mouse female, thymus; dose not given, 3 h; relative to: total).
For `CCN(CCCCOc1ccc(CCC(=O)N2CCC(Cc3ccccc3)CC2)cc1OC)Cc1ccccc1`, the excretion rate was 0.356 ± 0.11% (Sprague-Dawley rats, both sexes, faeces; oral gavage, 25 mg/kg, 12 to 24 h; relative to: dose).
`C=Cc1c(C)c2cc3nc(c(CC(=O)[O-])c4[n-]c(cc5nc(cc1[n-]2)C(C)=C5CC)c(C)c4C(=O)[O-])C(CCC(=O)[O-])C3C.[Cu+2].[Na+].[Na+].[Na+]` (stereo not shown) has a serum creatinine of 0.37 ± 0.05 mg/dL (Wistar rat, male; oral, 250 mg/kg daily, 28 days).
The SUVmean of `CC[C@H](C)[C@H](NC(=O)[C@H](CCCCN)NC(=O)CNC(=O)[C@H](CC(C)C)NC(=O)[C@H](Cc1ccccc1)NC(=O)[C@H](CCCCN)NC(=O)[C@H](CO)NC(=O)[C@H](Cc1ccccc1)NC(=O)[C@H](Cc1c[nH]c2ccccc12)NC(=O)[C@H](CCC(N)=O)NC(=O)[C@@H](NC(=O)[C@H](Cc1ccccc1)NC(=O)CCCCCNC(=O)CN1CCN(CC(=O)O)CCN(CC(=O)O)CCN(CC(=O)O)CC1)C(C)C)C(=O)N[C@@H](CCC(=O)O)C(=O)N1CCC[C@H]1C(=O)N[C@@H](CC(=O)O)C(=O)N[C@H](C(=O)N[C@@H](CO)C(=O)N[C@@H](CCC(N)=O)C(=O)N[C@H](C(=O)N[C@@H](CCC(N)=O)C(=O)N[C@@H](CC(=O)O)C(=O)N1CCC[C@H]1C(=O)N[C@@H](CC(N)=O)C(=O)N[C@@H](CC(=O)O)C(=O)N[C@@H](CCC(N)=O)C(=O)N[C@@H](Cc1ccc(O)cc1)C(=O)N[C@@H](CCC(=O)O)C(=O)N1CCC[C@H]1C(=O)N[C@@H](Cc1ccccc1)C(=O)O)C(C)C)C(C)C` [copper-64 labelled] is reported as 1.02 SUV (dynamic PET; mouse both sexes, CT26 tumour, untreated, tumour; intravenous, 100 µCi/mouse, 210 s).
For `CC(=O)NCCCC[C@@H]1NC(=O)[C@H](Cc2c[nH]c3c(C)cccc23)NC(=O)[C@H]([C@@H](C)O)NC(=O)[C@H](CC(N)=O)NC(=O)[C@@H](NC(C)=O)C(C)(C)SSC(C)(C)[C@@H](C(=O)N[C@@H](Cc2ccc(OCCN)cc2)C(=O)N[C@@H](Cc2ccc3ccccc3c2)C(=O)NC2(C(=O)N[C@@H](CCC(=O)O)C(=O)N[C@@H](CC(N)=O)C(=O)N[C@@H](Cc3cccnc3)C(=O)N(C)CC(N)=O)CCOCC2)NC1=O`, the protein binding was 26.8 ± 1.7% (equilibrium dialysis; albumin plus glycoprotein; 0.01 µM, albumin 4%, glycoprotein 0.07%).
For `CN1Cc2cc(Cl)ccc2-n2c(nnc2C2CCN(c3cccc([18F])n3)CC2)C1`, “total volume of distribution” read 1.05 ± 0.29 mL/cm3 (PET two-tissue compartment model; rhesus monkey, hippocampus; intravenous, dose not given, 80 min scan, baseline scan).

A few entries again:
Under plasma concentration, `CC(C)(CCCC/C=C/CCCCCC(C)(C)C(=O)O)C(=O)O` is recorded as “not detected” (ICR mice, plasma; oral, dose not given, 48 h).
With `N#[11C]c1ccc(-c2csc(NN=C3CCCC3)n2)cc1` the radioactivity uptake was 9.34 ± 1.17 %ID/g (C57BL/6 mice, male, bladder; intravenous, 3 MBq, 5 min).
